Assay results collected from several papers.
Numbered parts are unrelated; each lists some results of a single study.

Study 1 — technique: RNA Bind-n-Seq; form: RNA; sample: in vitro; tested at: 365 nM; reference: no-protein control; reading: higher = stronger binding
Target: RNA binding protein fox-1 homolog 2, RRM domain, GST-SBP tag (RBFOX2, Homo sapiens, UniProt O43251-10, residues 100-194)
Notes: natural RNA segment, single round, ends assumed
All sequences stand within: GGGAGUUCUACAGUCCGACGAUC … UGGAAUUCUCGGGUGCCAA
Construct (chain): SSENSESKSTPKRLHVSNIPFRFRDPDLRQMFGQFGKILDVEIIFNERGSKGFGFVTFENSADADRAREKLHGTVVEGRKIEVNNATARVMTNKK
For `UUUACUGUUAUCCUAUUUAGAUGGCCAUGAAGAGGAUGCUGUGAAAUUCCCAACAAACAUUGAUGCUGACAGUCAUGCAGUCUGGGAGUGGGGAAGUGAUCUUUUGUUCC`, “RBNS enrichment (R)” read 0.341.
Under “RBNS enrichment (R)”, `UUUCAAGUUUAAUAAAAUAGCAAUUAGCAGAAGUGACCAAAUUGGGAGAUAAUUAUCAGUCAUGAGGAAAGACACAGAUUUCGGUCAUAAAGAAUGUAAGGGCUAUAAGU` is recorded as 0.647.
For `AUACCCUUGUUUUUUAUAGUUGAGAUGUCAAGAAGUUAAAUUGAGGCUUAAUGAGCAUAGGUAGCUUGUCCAAGGUCUCAUGACCAGUCAAGGGCAAGCUGGAGUUAAUA`, “RBNS enrichment (R)” read 0.442.
Under “RBNS enrichment (R)”, `AUGCCCUGCCGUGGUGGCAGCUGGGGCUGUGGAUGGGAGGGGUCCCCAACAUGGAUGUGUUGCCCCUCCUCCGCAUGCCAACGCAGUUCAUGUACAAGGCCCCUCUGCAA` is recorded as 1.7.
`ACCUCAUGGGAUGGGCAAUGCACACACUGGCCCUUAUUUUUCCCUUUCAAAUAAAACACCAGUCAGGUACCUUUAUCCCAGUCUUAACUGUCCCAAAUCUGGAAGGUCCA`: “RBNS enrichment (R)” 0.715.
`CUCCAUAGGUGGGUUUGUAGGGUCUUGUGUUGCUUCUGGUCUCUCCAGGCUUGGCUGAGACGGACGGUAGACUUCCACCAUGUACCGAUCACAUCCCAGCUCUGCAUGGC` — result for “RBNS enrichment (R)”: 1.67.
Under “RBNS enrichment (R)”, `CAAAACUACGGAUGUCAGAGGGACCUGUUUCUAGAGUGAGUCCCAAUUACAUCAAAGGGCAACCUGCGCUUUCUCCAAUAAGUCUGAGUGGUUCUCUUGAGCUGGUGUCA` is recorded as 0.247.
For `CAUUCUAUCUGGGUGAACACCUUCAUUCUGGUAGAGCACCUAACACUUUAACAGCUGUUCCCGAAAGGGUUAGGACCAACUGCAAGUUAAUGUGGGUUGUAAAUGUUCCC`, “RBNS enrichment (R)” read 0.266.

Study 2 — technique: aptamer microarray, sandwich; form: DNA with 2'F-ANA; sample: in vitro; tested at: 200 nM; with: Cy3 exosite-II aptamer, 400 nM; reading: higher = stronger binding; sequence: GGTTGGTGTGGTTGG
Target: Prothrombin, mature alpha-thrombin (F2, Homo sapiens, UniProt P00734)
Notes: whole 15-mer aptamer, many near background
For `2'F-ANA at 1 2 3 4 7 8 11 13 14 15`, “mean fluorescence intensity” read 69.9 a.u.
For `2'F-ANA at 1 4 6 7 8 10 13 15`, “mean fluorescence intensity” read 47.6 a.u.
`2'F-ANA at 4 5 8 10 11 13 14`: “mean fluorescence intensity” 49 a.u.
Under “mean fluorescence intensity”, `2'F-ANA at 2 3 4 6 8 9 10 12 13 15` is recorded as 207 a.u.
Under “mean fluorescence intensity”, `2'F-ANA at 1 2 3 4 5 6 8 11 14 15` is recorded as 60.7 a.u.
`2'F-ANA at 2 6 7 9 10 13 14` — result for “mean fluorescence intensity”: 112 a.u.

Study 3 — technique: protein-binding microarray; form: double-stranded DNA, one strand shown; sample: in vitro; tested at: 940 nM top; notes: 60-bp whole probe; with: salmon DNA 0.4 mg/ml; reference: random background probes; reading: higher = stronger binding; all sequences stand within: GCCTAGCAC … GTCTTGATTCGCTTGACGCTGCTG
Target: Interferon regulatory factor 5, full length, phosphomimetic (IRF5, Homo sapiens, UniProt Q13568-2, residues 1-514, S451D/S453D/S456D/S462D)
For `GGCGATATCGGGACTGGAGACGTGCTA`, “fitted relative affinity” read -0.336 z-score.
Under “fitted relative affinity”, `AGATTTTTATCAAATGTGGGAGTGCTA` is recorded as -0.157 z-score.
`GTCGGTTTCGGACTGGGGACGTGCTAG` — result for “fitted relative affinity”: 7.91 z-score.
For `TTAGGACTGGGGTATCAGTTAGTGCTA`, “fitted relative affinity” read 0.242 z-score.
For `TCAATTCCAGGGTTTTATACTGTGCTA`, “fitted relative affinity” read 0.254 z-score.
Under “fitted relative affinity”, `GACGGTTTCGGGACAGGGGACGTGCTA` is recorded as 7.34 z-score.
For `TTAGGACTGGGCATCGGTTAGTGCTAG`, “fitted relative affinity” read -0.331 z-score.
For `TGTGGCTTAGTTTGTCAAAAAGTGCTA`, “fitted relative affinity” read -0.221 z-score.
Under “fitted relative affinity”, `CACAGGCTGCACAGAATGTAGTGCTAG` is recorded as -0.369 z-score.

Single results of other studies
The fold induction of `PhoQ, residues 284 288 289 292 302 303 SVHLDV` is reported as 76.4 (PhoP, residues 12 14 15 18 19 LQHIR (Escherichia coli, UniProt P23836); Sort-seq, refers to: YFP reporter; E. coli; PhoQ-PhoP variant library, with: 10 µM Mg2+; reference: high Mg2+ state, higher = stronger signaling).

Excerpt of the above (study 3):
For `TTAGGACTGGGGTATCAGTTAGTGCTA`, “fitted relative affinity” read 0.242 z-score.
For `TCAATTCCAGGGTTTTATACTGTGCTA`, “fitted relative affinity” read 0.254 z-score.
